Measured values collected from several papers.
Protocols differ between the studies behind these lines. Several values in a cell are separate wells, animals, samples, runs or records. Numbers after ± are the reported error.

SMILES | target or system | assay | system | conditions | how to read | measurement | result
O=C(O)CNC(=O)Cc1ccccc1 | – | – | ventricular cardiomyocytes, C57BL/6 mouse | dose not given, 0.492 s | – | sarcomere length | 1.65 µm
COc1ccccc1[C@H](Cn1c(=O)n(C(C)(C)C(=O)O)c(=O)c2c(C)c(-c3ncco3)sc21)OC1CCOCC1 | – | – | human | 20 mg, post-treatment | – | blood LDL level | 147 ± 33.3 mg/dL
C[C@H](Oc1ccc(Br)cc1-c1ccon1)C(=O)O | – | muscle velocity recovery cycle | human, tibialis anterior muscle | 200 mg once daily, first response latency at 30 Hz, multiple ascending dose | – | difference from placebo | 0.27%
CCOCc1nc(O)c(-c2nnc(Cc3ccc(Cl)cn3)o2)c(O)c1-c1c(OC)cccc1OC | – | – | renal hypertensive rat | po, 0.2 mg/kg once daily, trough | baseline: vehicle | ejection fraction | increased
Cc1n[nH]c2ccc(-c3cc(OC[C@@H](N)Cc4ccccc4)cnc3-c3ccoc3)cc12 | – | kinase binding, competitor, MIB/MS competition, measured: GIN4 | Candida albicans cell lysate | 1 µM | baseline: DMSO | log2 fold change | -0.162
N#Cc1ccc2c(c1)[C@H]1CCCN(C(=O)c3ccc4[nH]cnc4c3)[C@H]1C2 | – | – | T2DM patients with overweight or obesity, plasma | oral, 80 mg, day 15 (360 h), multiple dosing, mean | – | plasma 1,5-anhydroglucitol | 15.1 µg/mL
COc1ccc([C@@H](O)c2cc(-c3ncnc4cc(N5CCOCC5)ccc34)c(F)cc2Cl)nn1 | – | RECIST version 1.1 | patients, advanced solid tumours | 250 mg twice daily, added: avelumab | baseline: patients | disease control rate | 1%
CC(=O)Oc1cc2c(s1)CCN(C(C(=O)C1CC1)c1ccccc1F)C2 (stereo not drawn) | – | platelet aggregation, light transmission aggregometry | human patients, platelet-rich plasma | dose not given, 2 h, added: TRAP 15 µM | – | patients with IPA above 80% | 0%
c1ccc(-c2cc(-c3ccccc3)n(Cn3ccnc3)n2)cc1 | – | – | rat, STZ-nicotinamide diabetic | 75 mg/kg, 168 h, full-thickness excision wound | – | wound size | 17.4 mm
N#Cc1ccc2c(c1)[C@H]1CCCN(C(=O)c3ccc4[nH]cnc4c3)[C@H]1C2 | – | – | human, Phase II trial | oral, 20 mg once daily, day 28, adjusted mean, SE | – | HbA1c change from baseline | -0.05%
NC(=O)[C@H](CCCN=C(N)CF)NC(=O)c1ccccc1 | OCI-Ly1 | – | – | 1 µM, 120 h | – | viability | 151%
COc1cc(Nc2ncc3c(n2)-c2ccc(Cl)cc2C(c2c(F)cccc2OC)=NC3)ccc1C(=O)O | – | – | mouse, NB-SD neuroblastoma xenograft | oral, 20.8 mg/kg, day 7 | baseline: vehicle | relative tumour volume T/C | 1.48
CN(C)C(=O)c1cc2cnc(Nc3ccc(N4CCNCC4)cn3)nc2n1C1CCCC1 | – | RNA-seq GSEA, measured: HALLMARK_APICAL_JUNCTION | MB002 tumour | concentration not given, in vivo | baseline: vehicle, direction not given | GSEA enrichment score | -0.234
CN(C(=O)n1cnc(-c2ccc[n+]([O-])c2)c1)C1CCCCC1 | – | – | mice, formalin paw test | oral, 3 mg/kg, late phase | direction not given | licking time score | 10.9
N=C(N)NCCC[C@H](NC(=O)[C@H](CCCNC(=N)N)NC(=O)[C@H](CCCCN)NC(=O)[C@H](CCC(N)=O)NC(=O)[C@H](CCCCN)NC(=O)[C@H](Cc1ccc(O)cc1)NC(=O)[C@@H](N)CCCCN)C(=O)N[C@@H](CO)C(=O)N[C@@H](Cc1ccc(O)cc1)C(=O)N[C@@H](CCCCN)C(=O)O | – | – | dentin hypersensitivity patients | 10 µg/tooth, day 36 post-study visit, two teeth per subject, unit not given | baseline: baseline | VAS change | -19 ± 18
COc1ccccc1OCC(O)CN1CCN(CC(=O)Nc2c(C)cccc2C)CC1 (stereo not drawn) | – | barrier function (TEER) | human ileal GI microtissue EpiIntestinal-FT | – | – | IC15 | > 100 µM
CN[C@@H]1COc2c(S(=O)(=O)NC(=O)Nc3c4c(cc5c3CCC5)CCC4)cnn2C1 | – | measured: IL-18 | human participants, whole blood ex vivo | 300 mg twice daily, multiple doses, 24 h, IL-18, circulating, adjusted for, added: LPS/ATP | baseline: baseline | inhibition | 91.5%
O=P(O)(O)C(Cl)(Cl)P(=O)(O)O | – | astrogliosis, immunostaining | Mus musculus, sham-operated, hippocampal fissure | dose not given, day 7 | baseline: total area | GFAP-positive area | 3.71%
N[C@@H](CC(=O)N1CCn2c(nnc2C(F)(F)F)C1)Cc1cc(F)c(F)cc1F | – | flow cytometry | model, mouse, lung injury, LPS-induced | oral, 100 mg/kg twice daily, 1 d post injury | – | Ki-67+ AEC2 cells | 70%
CC(C)[C@H](NC(=O)[C@H](Cc1ccc(O)cc1)NC(=O)[C@H](Cc1ccc(O)cc1)NC(=O)[C@@H]1CCCN1C(=O)[C@H](CCC(=O)O)NC(=O)[C@H](CCC(=O)O)NC(=O)[C@H](Cc1c[nH]c2ccccc12)NC(=O)[C@@H]1CCCN1C(=O)[C@@H](NC(=O)[C@H](CCC(N)=O)NC(=O)c1ccc2c(c1)C(=O)OC21c2ccc(O)cc2Oc2cc(O)ccc21)C(C)C)C(=O)N[C@H](C(=O)N[C@@H](CCCCN)C(=O)N[C@@H](CCCCN)C(=O)N[C@@H](CO)C(=O)N[C@@H](CO)C(=O)NCC(=O)NCC(N)=O)C(C)C | – | surgeon confidence in nerve | human head and neck surgery, nerves | 500 mg, very much improved | baseline: white light | share of responses | 7.1%
COc1cc2cc(-c3ccc(CC(=O)Nc4cc(C(C)(C)C(F)(F)F)no4)cn3)cnc2cc1OC | – | RECIST v1.1 | human RET-altered solid tumours | dose not given, phase I | – | best overall response PD | 28%
OC[C@H]1O[C@@H](c2ccc(Cl)c(Cc3ccc(O[C@H]4CCOC4)cc3)c2)[C@H](O)[C@@H](O)[C@@H]1O | – | – | Japanese type 1 diabetes patients | 10 mg, day 7, 168 h | baseline: baseline | systolic blood pressure change | -2.7 mmHg
CC(C)NCC(O)c1ccc(O)c(O)c1 (stereo not drawn) | – | – | ventricular cardiomyocytes, C57BL/6 mouse | dose not given, 0.348 s | – | sarcomere length | 1.72 µm
Cc1c(C)c2c(c(C)c1O)CC[C@@](C)(CCC[C@H](C)CCC[C@H](C)CCCC(C)C)O2 | – | Fe3+ reduction, ferricyanide reduction | – | 30 µg/mL | – | absorbance | 1.012 ± 0.004
C[C@H]1C[C@H]2CSC(N)=N[C@@]2(c2nc(NC(=O)c3ccc(OC(F)F)cn3)cs2)CO1 | – | measured: Aβx-40 | healthy adults, plasma | 200 mg single dose, 8 h post-dose | baseline: placebo | percent change from baseline | -66.9%
CN[C@@H](C)C(=O)N[C@H]1CN(S(=O)(=O)c2cccc(S(=O)(=O)N3CC[C@H]4CC[C@@H](C(=O)NC(c5ccccc5)c5ccccc5)N4C(=O)[C@@H](NC(=O)[C@H](C)NC)C3)c2)CC[C@H]2CC[C@@H](C(=O)NC(c3ccccc3)c3ccccc3)N2C1=O | – | – | advanced pancreatic cancer patients | dose not given, monotherapy after AG discontinuation | – | tumour control duration | 1 years

SMILES | target or system | assay | system | conditions | how to read | measurement | result
O=C(O)/C=C/c1nccc2c3ccccc3n(Cc3ccc(C4CC4)cc3)c12 | – | – | mouse, acute hyperuricaemia model | oral, 2 mg/kg | – | serum uric acid | 390 µM
CO[C@H]1C[C@@H]2CC[C@@H](C)[C@@](O)(O2)C(=O)C(=O)N2CCCC[C@H]2C(=O)O[C@H]([C@H](C)C[C@@H]2CC[C@@H](OC(=O)NCCOCCOCCOCCOCCOCCOCCOCCOCCC(=O)N3CCc4cc(Cn5nc(-c6ccc7oc(N)nc7c6)c6c(N)ncnc65)ccc4C3)[C@H](OC)C2)C[C@@H](O)[C@H](C)/C=C(\C)[C@@H](O)[C@@H](OC)C(=O)[C@H](C)C[C@H](C)/C=C/C=C/C=C/1C | – | RECIST v1.1 | human | dose not given | – | duration of response | 16 months
[Cl-].[Cl-].[Pt+2].[Ru+2].c1ccc(-c2nccnc2-c2ccccn2)nc1.c1cnc2c(c1)ccc1cccnc12.c1cnc2c(c1)ccc1cccnc12 | – | – | – | concentration not given, second substitution step, added: guanosine 5'-monophosphate | – | activation enthalpy | 44 ± 4 kJ/mol
CCN1/C(=C/C(C)=O)Sc2ccc(F)cc21 | – | von Frey test | wild-type mice, burn injury pain, burn-injured hind paw | 10 mg/kg | – | paw withdrawal threshold | increased
Cn1cc(Nc2nccc(-c3ccc4c(c3)CN(C3COC3)CC[C@H]4NC(=O)c3cn(C(C)(C)C)nn3)n2)cn1 | – | measured: Glioma Invasiveness Signaling | splenic B cells, mouse | in vivo, 30 mg/kg, IgD-activated B cells | baseline: vehicle, positive = activation | pathway activation z-score | 2.71
O=C(CCCCCCC(=O)NO)NO | OCI-Ly1 | – | – | 1 µM, 120 h | – | viability | 124%
N#CCC1CCN(c2nc(Nc3ccc(N4CCC(O)CC4)cc3)c3c(=O)[nH]ncc3n2)CC1 | – | Olink multiplex | human, serum | 80 mg, day 29, unit not given | baseline: baseline | osteopontin level change | -1.39
O=C(c1ccc(OCCN2CCCCC2)cc1)c1c(-c2ccc(O)cc2)sc2cc(O)ccc12 | – | – | male ICR-CD1 mice, formalin test | intracerebroventricular, 100 µg/animal, 25 to 30 min | – | paw licking time | 0 s
Cc1ccc([C@@H]2O[C@H](CO)[C@@H](O)[C@H](O)[C@H]2O)cc1Cc1ccc(-c2ccc(F)cc2)s1 | – | – | Japanese type 2 diabetes patients | 100 mg, day 17 | baseline: day 1 | change in fasting plasma glucose | -29 mg/dL
CCN1CCN(Cc2ccc(Nc3ncc(F)c(-c4cc(F)c5nc6n(c5c4)[C@H](C)CCC6)n3)nc2)CC1 | – | – | human advanced solid tumours | 100 mg, phase Ia monotherapy RECIST 1.1 | – | complete response | 0%
CCCOc1ccc(-c2ccc(C#N)cc2)cc1 | – | proteomics, measured: Snca | rat placenta | concentration not given, uterine perfusion, all three doses | – | protein level | decreased
COC(=O)c1ccc2c(c1)NC(=O)/C2=C(\Nc1ccc(N(C)C(=O)CN2CCN(C)CC2)cc1)c1ccccc1 | – | – | rat, bleomycin lung fibrosis | oral, 60 mg/kg daily, day 14 | – | lung tissue density | inhibited
O=C(NS(=O)(=O)c1ccc(F)cc1F)c1cc2ccccc2n1Cc1ccc(Br)c2ccccc12 | – | – | mouse, acute hyperuricemia model | dose not given | – | serum uric acid | 934 µM and 636 µM and 1190 µM
C[C@@H](NC(=O)N1C(=O)[C@H](Cc2ccnc(N)c2)[C@H]1C(=O)O)C1CCCCC1 | – | – | human, plasma | continuous intravenous infusion, 1.0 mg/kg/h, days 1 to 6 of 5-day infusion, median | baseline: baseline | time to maximum PT over baseline | 120 h
OC(CCN1CCCCC1)(c1ccccc1)C1CC2C=CC1C2 (stereo not drawn) | – | resting-state EEG | healthy elderly humans | oral, 2 mg, eyes closed, LS mean | – | EEG Beta2-power Pz-O1 | 1.1 µV²
Cc1ccc(NC(=O)c2ccnc(C(F)(F)F)c2)cc1-c1cc(OCCO)nc(N2CCOCC2)c1 | – | – | MAPK-altered advanced solid tumour patients | dose not given, single-agent dose escalation | – | disease control rate | 36.8%
CC(C)(O)c1coc(S(=O)(=O)NC(=O)c2cc3ccccc3n2Cc2ccc(C3CC3)c3ccccc23)c1 | – | – | male mouse, acute hyperuricaemia model, serum | oral, 2 mg/kg, 4 h | – | serum uric acid | 327 ± 64.9 µM
CCC/C(=C\C1=C(OC)C(=O)c2ccccc2C1=O)C(=O)N(CC)CC | – | subretinal neovascularization | Vldlr-/- mouse | intraperitoneal, 12.5 or 25 mg/kg twice daily, 7 days | baseline: vehicle | neovascular area | decreased
Cc1cn(-c2ccc3n(c2=O)CCN([C@@H](C)[C@@H]2CC[C@H](c4cc(F)c(Cl)cc4C(F)(F)F)O2)C3=O)cn1 | – | measured: amyloid beta 40 | human, non-elderly, cerebrospinal fluid | 40 mg once daily, 14 days, sampled 336 h | baseline: placebo | change from baseline | -5.89%
O=C(O)CCc1nccc2c3ccccc3n(Cc3ccc(Br)c4ccccc34)c12 | – | – | mouse, acute hyperuricaemia model, serum | oral, 2 mg/kg, individual animal data | – | serum uric acid | 597 µM and 295 µM and 178 µM and 378 µM and 278 µM
NC(=O)c1cnc2[nH]ccc2c1N[C@@H]1[C@@H]2CC3C[C@H]1C[C@@](O)(C3)C2 | – | CD4+ effector T cells, flow cytometry | Japanese humans, peripheral blood | 200 mg single dose | baseline: baseline | percent change | -0.05%
O=C(O)CSc1nnc(Br)n1-c1ccc(C2CC2)c2ccccc12 | – | – | mouse, acute hyperuricaemia model, serum | oral, 2 mg/kg | baseline: vehicle model | serum uric acid decrease | 41.1%
CCCCC1(CCCC)CN(c2ccccc2)c2cc(SC)c(OCC(=O)N[C@@H](C(=O)NCC(=O)O)c3ccccc3)cc2S(=O)(=O)C1 | – | measured: 7α-hydroxy-4-cholesten-3-one | human, plasma | 10 mg once daily, day 7 | – | plasma C4 | 64.5 ng/mL
N#Cc1ccn2c(-c3ccncc3)c(-c3ccc(F)cc3)nc2c1 | – | kinase binding, competitor, MIB/MS competition, measured: CTK1 | Candida albicans cell lysate | 10 µM | baseline: DMSO | log2 fold change | -0.144
[Cl-].[Cl-].[Pt+2].[Ru+2].c1ccc(-c2nc3cc4ccccc4cc3nc2-c2ccccn2)nc1.c1cnc2c(c1)ccc1cccnc12.c1cnc2c(c1)ccc1cccnc12 | – | – | – | concentration not given, first substitution step, added: L-methionine | – | activation enthalpy | 26 ± 2 kJ/mol
